Results collected from several papers.
Each numbered part is a random draw from the data of one study; scales do not carry over between parts.

Set 1 — technique: protein-binding microarray; form: double-stranded DNA, one strand shown; sample: in vitro; tested at: 250 nM; notes: 60-bp whole probe; together with: salmon DNA 0.4 mg/ml; relative to: random background probes; reading: higher = stronger binding; quantity: log fluorescence
Target: Interferon regulatory factor 5, full length, phosphomimetic (IRF5, Homo sapiens, UniProt Q13568-2, residues 1-514, K96S/S451D/S453D/S456D/S462D)
GCCTAGCACTTAGGTATCGGGTTCCGGTTAGTGCTAGTCTTGATTCGCTTGACGCTGCTG: 3.89 z-score
GCCTAGCACGACGGTTGCGGTATCGGGACGTGCTAGGTCTTGATTCGCTTGACGCTGCTG: 1.14 z-score
GCCTAGCACTTAGGTTTCGGGTATCGGTTTGTGCTAGTCTTGATTCGCTTGACGCTGCTG: 9.2 z-score

Set 2 — technique: RNA Bind-n-Seq; form: RNA; sample: in vitro; tested at: 200 nM; notes: whole 134-nt RNA, ends assumed; together with: 150 mM KCl; relative to: input library; reading: higher = stronger binding; quantity: log2 enrichment
Target: Fragile X messenger ribonucleoprotein 1, C-terminal low-complexity region (Fmr1, Mus musculus, UniProt P35922)
GGGAGUUCUACAGUCCGACGAUCUUCUUUGCCCAACGGGGCCGUGGAUACCUGCCUUUUAAUUCUUUUUUAUUCGCCCAUCGGGGCCGCGGAUACCUGCUUUUUAUUUUUUUUUGGAAUUCUCGGGUGUCAAGG: 0.271
GGGAGUUCUACAGUCCGACGAUCGUCCUGUGCUACACAUCGUAUGUACCGAAUCGGAAAAAAAGGUUUUUUUGGAAAAAGGAAAGUAUUAUGUUACGCCGUUCGGAUCUGCACUGGAAUUCUCGGGUGUCAAGG: -1.27
GGGAGUUCUACAGUCCGACGAUCUCCUAGUAUUCUGGCCGUUCAGAGAUCUGCAAUCCUCAAGAAGCAGCAACAGCAGCAGCAGCAACAACAACAUCAAGCCUCAUCUAAUAGUGGAAUUCUCGGGUGUCAAGG: 0.458
GGGAGUUCUACAGUCCGACGAUCUGGCCCUGGUGGCAUGCGGGGAGGAAGAGGUGGCCUCAUGGAUCGUGGUGGUCCCGGUGGAAUGUUCAGAGGUCGCCGUGGUGGAGACAGUGGAAUUCUCGGGUGUCAAGG: -0.462

Mixed results
CATGCAAA
E-score (Sal-like protein 4, full length isoform B (SALL4, Homo sapiens, UniProt Q9UJQ4-2, residues 1-616); universal PBM; double-stranded DNA, one strand shown, in vitro; not given, 8-mer, flanks averaged, mean of replicates; higher = stronger binding): 0.207

PhoQ, residues 284 288 289 292 302 303 DDMDFR
fold induction (PhoP, residues 12 14 15 18 19 SPWRL (Escherichia coli, UniProt P23836); Sort-seq, item: YFP reporter; E. coli; PhoQ-PhoP variant library, together with: 10 µM Mg2+; relative to: high Mg2+ state, higher = stronger signaling): 0.675

GCCTTGAC
E-score (Sal-like protein 4, full length isoform A (SALL4, Homo sapiens, UniProt Q9UJQ4, residues 1-1053); universal PBM; double-stranded DNA, one strand shown, in vitro; 600 nM, 8-mer, flanks averaged, mean of replicates; higher = stronger binding): -0.0851

A few entries again (set 1):
GCCTAGCACTTAGGTATCGGGTTCCGGTTAGTGCTAGTCTTGATTCGCTTGACGCTGCTG: 3.89 z-score
GCCTAGCACGACGGTTGCGGTATCGGGACGTGCTAGGTCTTGATTCGCTTGACGCTGCTG: 1.14 z-score
